# Assay results from different studies.
# Parts stem from different laboratories: compare values within a part only. Substitutions count along the parent as printed.

# Study 1
# Target: CCND2, cyclin fold, Cln2 fusion (human)
# Method: yeast growth competition, sequencing
# Medium: yeast
# Notes: weak parent motif
# Relative to: not given
# Reading: higher = stronger binding
# Starting sequence: GMNC docking peptide (human); KNAKRNLSSEFAN
Change,normalised enrichment score
KNAKRNLSSESAN [F11S],0.142
KDAKRNLSSEFAN [N2D],0.0766
KNAKRNGSSEFAN [L7G],0.458
KNAKRNLSKEFAN [S9K],0.318
KNAKRNLSSEMAN [F11M],0.275
KNAKRNNSSEFAN [L7N],0.000857
KNAKRNLWSEFAN [S8W],0.0901
KNAKRVLSSEFAN [N6V],-0.175
KNAKRNHSSEFAN [L7H],-0.0909
KNAKRNLSSGFAN [E10G],0.186
KNAKRNLSSEWAN [F11W],0.35
KNAKPNLSSEFAN [R5P],-0.0347
KNAKRNLHSEFAN [S8H],-0.00547
KNAKRNLSSSFAN [E10S],-0.122
KNAKRRLSSEFAN [N6R],0.0371
KNAKRNLSNEFAN [S9N],0.383
KNAKRNLSSQFAN [E10Q],0.345
KNASRNLSSEFAN [K4S],0.0974
KNAKTNLSSEFAN [R5T],-0.146
KNAKRNLSSEFMN [A12M],0.675
KNAKRNLSSEFTN [A12T],0.188
KNAKGNLSSEFAN [R5G],0.126

# Study 2
# Target: NFE2L2, bZIP domain (human)
# Method: DHFR protein complementation
# Medium: yeast
# Notes: single substitutions, most at no-binding floor
# Relative to: wild-type JUN-FOS pair
# Reading: higher = stronger binding
# Starting sequence: JUN, bZIP domain (human); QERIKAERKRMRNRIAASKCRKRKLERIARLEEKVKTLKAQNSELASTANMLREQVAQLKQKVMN; partner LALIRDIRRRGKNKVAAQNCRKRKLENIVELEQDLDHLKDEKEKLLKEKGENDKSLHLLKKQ
Change,binding fitness
S47I,-1.42 natural log
L45W,-1.44 natural log
T37R,-1.32 natural log
L59R,-1.56 natural log
A49Y,-1.54 natural log
L59H,-1.45 natural log
K39H,-1.43 natural log
A46K,-1.42 natural log
T37A,-1.48 natural log
E54G,-1.44 natural log
S47H,-1.5 natural log
K36R,-1.48 natural log
S47R,-1.36 natural log
V56E,-1.33 natural log
K36W,-1.49 natural log
N42K,-1.52 natural log
S43L,-1.32 natural log
A46D,-1.52 natural log
T48G,-1.46 natural log
S47P,-1.51 natural log
A49E,-1.48 natural log
I28M,-1.58 natural log
Q55I,-1.45 natural log
S47K,-1.4 natural log
I28A,-1.42 natural log

# Study 3
# Target: Sal-like protein 4, full length isoform A (SALL4, Homo sapiens, UniProt Q9UJQ4, residues 1-1053)
# Chain of UniProt Q9UJQ4 (whole entry, looked up): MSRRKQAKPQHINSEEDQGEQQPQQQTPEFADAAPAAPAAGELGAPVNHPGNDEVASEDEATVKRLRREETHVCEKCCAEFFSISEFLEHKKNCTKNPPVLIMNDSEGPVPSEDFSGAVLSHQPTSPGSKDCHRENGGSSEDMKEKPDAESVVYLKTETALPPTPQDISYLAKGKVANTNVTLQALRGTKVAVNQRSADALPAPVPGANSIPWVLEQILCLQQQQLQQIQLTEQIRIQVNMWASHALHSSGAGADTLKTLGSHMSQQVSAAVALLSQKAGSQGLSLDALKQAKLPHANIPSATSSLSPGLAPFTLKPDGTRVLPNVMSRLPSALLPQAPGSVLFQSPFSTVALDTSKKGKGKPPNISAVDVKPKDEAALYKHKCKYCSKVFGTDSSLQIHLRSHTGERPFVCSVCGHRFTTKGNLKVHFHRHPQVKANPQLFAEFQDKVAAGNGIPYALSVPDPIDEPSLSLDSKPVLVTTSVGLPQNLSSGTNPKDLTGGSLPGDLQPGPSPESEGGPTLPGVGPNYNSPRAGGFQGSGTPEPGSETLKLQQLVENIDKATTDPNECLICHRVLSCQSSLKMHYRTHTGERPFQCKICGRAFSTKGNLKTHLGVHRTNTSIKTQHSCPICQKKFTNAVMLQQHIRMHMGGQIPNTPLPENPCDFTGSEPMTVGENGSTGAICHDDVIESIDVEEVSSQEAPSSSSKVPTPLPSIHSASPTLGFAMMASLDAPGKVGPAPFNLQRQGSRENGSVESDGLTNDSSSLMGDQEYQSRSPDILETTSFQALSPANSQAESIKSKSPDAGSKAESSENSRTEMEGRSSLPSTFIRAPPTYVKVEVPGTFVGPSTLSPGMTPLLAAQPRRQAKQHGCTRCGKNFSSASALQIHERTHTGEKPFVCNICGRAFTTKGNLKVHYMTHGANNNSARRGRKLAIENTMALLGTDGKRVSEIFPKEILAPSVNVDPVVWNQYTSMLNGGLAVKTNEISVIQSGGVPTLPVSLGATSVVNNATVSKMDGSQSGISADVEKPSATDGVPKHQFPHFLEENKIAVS
# Method: universal PBM
# Molecule type: double-stranded DNA, one strand shown
# Medium: in vitro
# Concentration: 600 nM
# Notes: 8-mer, flanks averaged, mean of replicates
# Reading: higher = stronger binding
Sequence,E-score
AGCGAGCC,-0.236
CAACAATA,0.323
AATGACTG,0.216
CCACAGCC,-0.264
CGTAGTCA,-0.0517
CGCCGAGC,-0.319
CCACGGGA,-0.239
CGACTAAA,0.062
GGATGTAC,0.0316
GAAACAGC,-0.098
CATTCCTA,0.094
CATTCTAA,0.113
GACTTCCA,-0.163
GCTTAGCA,-0.054
CTACGGGC,-0.331
CAGGAAGA,-0.0635
AGTAAGTA,0.246

# Study 4
# Target: RNA binding protein fox-1 homolog 2, RRM domain, GST-SBP tag (RBFOX2, Homo sapiens, UniProt O43251-10, residues 100-194)
# Method: RNA Bind-n-Seq
# Molecule type: RNA
# Medium: in vitro
# Concentration: 365 nM
# Notes: natural RNA segment, single round, ends assumed
# Relative to: no-protein control
# Reading: higher = stronger binding
# Shared flanks, not repeated: GGGAGUUCUACAGUCCGACGAUC … UGGAAUUCUCGGGUGCCAA
# Residues (chain): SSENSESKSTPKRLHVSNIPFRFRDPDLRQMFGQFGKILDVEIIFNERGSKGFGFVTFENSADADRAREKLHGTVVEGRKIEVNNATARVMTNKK
Sequence,RBNS enrichment (R)
GGUGAUGGUAGUGGUCAGAAAUGGCUUUUGCUUUGGUAAUAAGUGAAUUUUAUUCCCCAAGAGUCUCAGGCAUCAGAAGUACUUGGCAUCUUAAUCCAAGCAAAAAUAAG,0.369
CCCACUGAAUUUUGUAACUUCCUGUGUUUGCAUCCUCUGUUCCUAUUCUGCCCUUGCUCUGUGUCAUCUCAGUCAUUUGACUUAGAAAGUGCCCUUCAAAAGGACCCUGU,0.513
UCUACAAUAUUAAAGAUCUAAAUACAAAGGAUAUAAUACAGUCUUGAAUCUAAAGUAAUUUGCUAACUAUUUUGAUUCUUCAGAGAACUACUAAUAAAAAUCUAAAAGGU,0.387
CAGGCCUGAGUUCCUAAGGAAACCACCCUACCGGGGUGGAAGGGAGGGUCAGGGAAGAAACCCACUCUUGCUCUACGAGGAGCAAGUGCCUGCCCCCUCCCAGCAGCCAG,0.392
UGUGGCAAUGGGGGUUUUUAUUGCCAUUCAUUCUUUAGCAACCUGGACUGCCAUCUUGGCAGACCUGAACUUUGCUGAGCCUGAUUUUCACAAAGGAGUAGGCCAUGUAG,0.256
CACCAGGCUGCAGCCUCCCCAAUCCCAGCCCACUUUGCUGUGUCUCUGGCGGGCUGUCCUCCUUGGUGGGAGCUGUCCUGCACACUGUAGGAUGCUUAAAGGUAUCCCUG,0.267
CCUGAAAAGAAAUCCUUUAAAUUACCUAUGGAAGUGAUGUCCUCAGAUAAUCUUAAUGACUAUUUUGGCAUUUAUAAAUAGAAAUGAUUAUGGACUUUGAUCUGCCAUAC,0.469
CCUCCCGAGCACUGGGAUUAAAGGUGUGCACCACCACUGUCUGGCUCAGGAAAGCUGUUUUUACACUGAACAGCCAGCCUUGCUCUGUAGCAGGUGUGCUCGAGGACUGU,0.386
UGGGCUGCCAGAGAGGUUUGUAGCCCGGCCCUGACUGCAUCCUCCCCAUCCCUGGGGCAACAUUCCCUGGAGCUGUGCCAACAGGAGGACUGAAGCAGCCUGGUUUUAGA,0.73
GCAUAAAAUAUGUAACCAGGAAAAGACUGUUAACAUUACAUUUAUGCAAAUUAAAUGCCCUUAAAUUUCACCAUUUGUCUUUCAUUUUAAAGGUUAUUUGCUCCCGAUUA,0.697
UCUCCAGUGCAUUAAAUAACCUUCAUCAAGAAAUAGGUUAUAGGUAAAAUCUCUGAAGGAUCAUCUAUGUAUUCAAGUAAUUAUUUUUUAGAUAAUAACUGUCUUCUGGA,0.35
CACUCUCGUUCAGGAGGAGGCUUCUCGCCUGAAACAAUUGCACCCAACACUUUUGGGGAAGUCUCAUUUUUGCAUUAGGACAUAUUUUAGGUUAAACAAAAGCAUAUUUU,0.948

# Study 5
# Target: Histone acetyltransferase KAT6A, both winged helices, GST fusion (KAT6A, Homo sapiens, UniProt Q92794, residues 1-181)
# Method: protein binding microarray
# Molecule type: double-stranded DNA, one strand shown
# Medium: in vitro
# Concentration: not given
# Notes: 8-mer, flanks averaged, mean of 2 arrays, mostly near background
# Relative to: not given
# Reading: higher = stronger binding
# Residues (chain): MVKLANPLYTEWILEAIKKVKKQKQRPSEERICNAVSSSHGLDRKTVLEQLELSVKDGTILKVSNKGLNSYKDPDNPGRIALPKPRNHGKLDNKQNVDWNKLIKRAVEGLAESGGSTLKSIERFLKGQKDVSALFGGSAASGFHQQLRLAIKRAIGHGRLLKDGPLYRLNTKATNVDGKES
Sequence,E-score
GGCACTAA,-0.0479
CAAGGTCA,-0.138
ACTAAAGG,-0.167
GATTTACC,-0.0229
CGAAGGCA,-0.186
AACGATTG,-0.0197
ACGGCCCG,0.274
ATTGCCTG,-0.126
CAGTGATG,-0.102
ACTCAACC,-0.0204
CCCCTCCG,-0.00836
CAACAGGA,-0.121
CCTCGGTC,-0.121
CTAGACCC,-0.0654
ATCACCGA,0.00345
CTGTCCGC,0.157
ACCGGCAG,0.189
CAATCTCA,-0.0546
AGCGTCCT,0.0278
CGTGCCGC,0.269
CTAGCTTC,0.031
GTACGGTA,0.198
CCCTCTTC,-0.16
AATAGACC,0.0354

# Study 6
# Target: Interferon regulatory factor 5, full length, phosphomimetic (IRF5, Homo sapiens, UniProt Q13568-2, residues 1-514, K96S/S451D/S453D/S456D/S462D)
# Method: protein-binding microarray
# Molecule type: double-stranded DNA, one strand shown
# Medium: in vitro
# Concentration: 250 nM
# Notes: 60-bp whole probe
# Together with: salmon DNA 0.4 mg/ml
# Relative to: random background probes
# Reading: higher = stronger binding
# Shared flanks, not repeated: GCCTAGCAC … GTCTTGATTCGCTTGACGCTGCTG
Sequence,log fluorescence
GACGCTTTCGGGTTTCGAGACGTGCTA,8.65 z-score
GACGGTTTCCCTATCCTGACGTGCTAG,0.643 z-score
TTAGATAGCAGTATCGATTAGTGCTAG,6.41 z-score
GACGGTTGCGGACTGGGGACGTGCTAG,-0.138 z-score
TACGGTATCCTTCTCCTGACGTGCTAG,0.573 z-score
GACGGTCTCCTTTTCCTGAGGTGCTAG,0.0533 z-score
AGAGTAAATTAAGTTAGAACGTGCTAG,-0.025 z-score
TTAGGTTTCGGCTATCGGTTAGTGCTA,9.22 z-score
ATATATATGAATATATATTAGTGCTAG,0.554 z-score
TGAACTTCGGCCTCTAGGTTTGTGCTA,0.0374 z-score
GACGGTTGCGGTATCGGGACGTGCTAG,1.14 z-score
GACGGTATCGGTATCGGCACGTGCTAG,6.48 z-score
GACGATATCGGGTATCGAAACGTGCTA,4.68 z-score
TTAGATTTCGGGTGTCGATTAGTGCTA,4.95 z-score
GACGATATCGGGTATCGTGACGTGCTA,1.98 z-score
TCAACTCTCTAATTTTGACTGTGCTAG,0.477 z-score
CAGGGTTTCACTTTAAATTAGTGCTAG,4.09 z-score
GACGATTCCAGTTCCGAGACGTGCTAG,0.263 z-score

# Excerpt of the above (study 1):
Change,normalised enrichment score
KNAKRNLSNEFAN [S9N],0.383
KNAKGNLSSEFAN [R5G],0.126
KNAKRNNSSEFAN [L7N],0.000857
KNAKRNLSSGFAN [E10G],0.186
KNAKRRLSSEFAN [N6R],0.0371
KNAKRNLSKEFAN [S9K],0.318
KDAKRNLSSEFAN [N2D],0.0766
KNAKRNLSSEFMN [A12M],0.675
KNAKRNLSSEMAN [F11M],0.275
KNAKRVLSSEFAN [N6V],-0.175
